# Assay results from different studies.
# Numbered parts are unrelated; each lists some results of a single study. Substitutions count along the parent as printed.

# Block 1
# Target: CCNB1, cyclin fold, Cln2 fusion (human)
# Method: yeast growth competition, sequencing
# Matrix: yeast
# Notes: weak parent motif
# Baseline: not given
# Reading: higher = stronger binding
# Parent: EXO1 docking peptide (human); KPECGRVQRAIFQ
Variant,normalised enrichment score
P2A,0.366
G5A,-0.324
K1A,0.128
C4A,0.133
Q13A,0.133
I11A,0.102

# Block 2
# Target: Centromere-binding protein 1, full length, N-terminal tag (CBF1, Saccharomyces cerevisiae, UniProt P17106, residues 1-351)
# UniProt P17106, sequence (whole entry, looked up): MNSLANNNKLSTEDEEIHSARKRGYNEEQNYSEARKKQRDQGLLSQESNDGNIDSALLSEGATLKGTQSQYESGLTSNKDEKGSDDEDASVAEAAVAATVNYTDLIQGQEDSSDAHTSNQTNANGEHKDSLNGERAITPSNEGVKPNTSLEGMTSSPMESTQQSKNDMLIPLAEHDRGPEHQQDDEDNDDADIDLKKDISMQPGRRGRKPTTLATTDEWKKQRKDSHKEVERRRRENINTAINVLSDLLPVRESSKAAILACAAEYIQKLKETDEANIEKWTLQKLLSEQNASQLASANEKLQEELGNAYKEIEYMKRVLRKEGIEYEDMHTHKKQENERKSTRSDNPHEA
# Method: protein-binding microarray
# Form: double-stranded DNA, one strand shown
# Matrix: in vitro
# Concentration: 0.8 µM
# Notes: whole 60-bp probe, no competitor
# Reading: higher = stronger binding
# All sequences stand within: … GTCTTGATTCGCTTGACGCTGCTG
Strand,fluorescence intensity [a.u.]
CTAAAGAAAATTCAGCACATGCCAGATGGCGAGTTC,775
CTAAATGCGACGAATGGCATCATGCCTATTATTTTC,532
CTATCTTTTACTAGCCACGTGAAATGATGATAATTC,3580
GAATATTAGAAGGATCAGCTGAAACCTAAAGATTAG,589
GAATCTGCTTGGAAAAATGTCACGCGTAAAAATTAG,2110
GAAGGTCTTCTAATCCATCAGATGGGCCAATAATAG,563
CTACGGAAATGGCACCATCACCTGAAAAAGAACTTC,568
GAATTAAGAGGACCTCATCAGACATGCTCGGACTAG,480
GAATAATATACTGGTAGTGTGACTACTAGTTTATAG,919
CCTAACTACTATAATCACGCCACATAGCTTCGTACA,754
GAATAGTATGGTGAGCACATGCTTTAAGTCCGATAG,947
GAACACAAAAAAATGCACATGATGTTTTATTATTAG,1300
CCTAACTACTATAGGTGCGTGGAATAGCTTCGTACA,528
CTACAGTTAAAACACCACCAATATTTCCAGAAATTC,541

# Block 3
# Target: Histone acetyltransferase KAT6A, both winged helices, GST fusion (KAT6A, Homo sapiens, UniProt Q92794, residues 1-181)
# Method: protein binding microarray
# Form: double-stranded DNA, one strand shown
# Matrix: in vitro
# Concentration: not given
# Notes: 8-mer, flanks averaged, mean of 2 arrays, mostly near background
# Baseline: not given
# Reading: higher = stronger binding
# Residues (chain): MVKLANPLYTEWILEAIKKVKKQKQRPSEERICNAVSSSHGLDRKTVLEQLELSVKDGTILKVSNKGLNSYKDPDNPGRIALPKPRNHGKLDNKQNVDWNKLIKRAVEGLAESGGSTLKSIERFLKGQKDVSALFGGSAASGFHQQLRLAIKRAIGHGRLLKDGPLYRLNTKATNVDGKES
Strand,E-score
AAGAGGGC,0.0642
CGACAAGC,0.108
CGGGGTAG,0.116
CGGAAGAA,0.152
AATTTCTA,-0.0837
CTAATCAC,-0.0404
TAAACGTA,-0.0153
AGGAATCG,0.0816
AACTGCCG,0.186
GCACGGCA,0.232
CACACCAC,-0.136
CAATAGCA,-0.0545
ACACGTTC,0.0385
CACTGCAG,-0.161
CTGTGTAA,-0.0971
GGGCATAA,-0.0717
GCATGGGC,-0.074

# Block 4
# Target: PABPC1L2, full length, GST fusion (mouse, UniProt A0ABA7IW68)
# Method: RNAcompete
# Form: RNA
# Matrix: in vitro
# Concentration: 20 nM
# Notes: 7-mer, probes averaged, single round
# Baseline: mean of 7-mers
# Reading: higher = stronger binding
# Residues (chain): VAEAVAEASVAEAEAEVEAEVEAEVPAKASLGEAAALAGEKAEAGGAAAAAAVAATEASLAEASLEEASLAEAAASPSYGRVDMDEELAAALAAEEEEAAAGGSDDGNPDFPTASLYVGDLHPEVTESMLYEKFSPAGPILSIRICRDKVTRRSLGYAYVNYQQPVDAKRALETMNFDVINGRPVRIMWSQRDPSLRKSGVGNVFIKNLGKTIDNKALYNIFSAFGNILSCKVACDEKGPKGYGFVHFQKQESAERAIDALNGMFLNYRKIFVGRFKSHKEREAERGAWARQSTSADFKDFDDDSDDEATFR
Strand,7-mer Z-score
CUUACCU,-0.318
UAGACUU,-0.137
CUGCUAA,-0.0391
CGUAAUA,-0.0863
CGUUAAA,0.216
UCUCUUU,-0.347
ACAACCA,0.374
CACUCGU,-0.325
CACCACG,-0.122
CUGAGUA,-0.121
AUACUAA,0.187
CACACCG,-0.269
GCAUGAG,0.0805
UCCUCCU,-0.411
CUCCAGG,-0.191
GCGACCU,-0.0246

# Block 5
# Target: RING finger protein unkempt homolog, zinc fingers 1-6, GST-SBP tag (UNK, Homo sapiens, UniProt Q9C0B0, residues 30-357)
# Method: RNA Bind-n-Seq
# Form: RNA
# Matrix: in vitro
# Concentration: not given
# Notes: RNA with constant flanks, human and mouse sites, ends assumed
# Baseline: input RNA pool
# Reading: higher = stronger binding
# All sequences stand within: GGGAGUUCUACAGUCCGACGAUC … CAACAGAGGAUUGAGCAUCA
# Construct (chain): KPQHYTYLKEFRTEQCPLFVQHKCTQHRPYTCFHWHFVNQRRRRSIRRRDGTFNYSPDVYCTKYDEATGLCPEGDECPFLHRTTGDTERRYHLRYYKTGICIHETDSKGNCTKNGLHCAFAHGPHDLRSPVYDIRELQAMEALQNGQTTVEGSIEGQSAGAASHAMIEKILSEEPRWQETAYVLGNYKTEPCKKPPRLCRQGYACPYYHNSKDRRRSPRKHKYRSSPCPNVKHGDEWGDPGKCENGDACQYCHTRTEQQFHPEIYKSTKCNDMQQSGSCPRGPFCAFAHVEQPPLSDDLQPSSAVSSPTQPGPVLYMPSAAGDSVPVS
Strand,bound/input enrichment [ratio]
AGUCAUGAACCGGAGUUUGACUAUUUGAAAAGUCUAGAAAUUGAGGAAAAAAUUAAUAAAAUUAGGUGGUUACCACAACAGAAUGCUGCUCAUUUUCUACUGUCUACAAAUGAUAAAACU,79.8
GUGGCUGCUUUCUUUGGUACUCUCUCUCCACUCCCAACGUAGCUGUGACGUGUUGUAGUUUUUAGCUGUUUGUAAAAUGUUAAAAAAAAAAAAAGUUAAAAGGAAGUUAAACUAACCACA,2.16
GAUGACUGGCUGGAAAACAGGAAAAGAACACAGAAAAGACAGGCACCUGAAUGGACAGAAGAGGACCUCAGUCAACUGACAAGAAGUAUGGUUAAGUUCCCAGGAGGGACUCCAGGUCGA,0.229
CGGGAGUUCAUGAUCAAAACCCGUCGUAGGAAGGGCCUGAGUGAAGAUGUGAGCAUCAGCAAGUUCUUCGACGAUCCUAUGUUGCUGGAGCUCGCCAAACAGGAUGUUGUGCUCAAUUAU,0.247
CGAACGGGCUCUCUGCGGAUCUCACACUUGCCCAGUGUCUCUUGGCUAGACCUCCAGUGACUGAUGAGGUCAUUCACUGCUGAGCAGGGACGCACUGCAAGUAAAACAACCCUCGUGGAA,0.0435
AGUAAAGAGGGGAAACCUAAGACCAUAAUUGUGAAUUGGCAGCCUCCCUCCGAAGCCAAUGGCAAAAUUACAGGUUACAUCAUAUAUUACAGUACAGAUGUGAAUGCAGAGAUACAUGAC,0.15
AAGAUUGGGCUUAUUCAGUUUUGCUUAUCUGCUCCUAAAACAGAUAUGGAUAAUCAAAUAGUAGUAUCUGACUAUGCCCAGAUGGAUCGAGUGCUUCGAGAGGAGAGAGCCUAUAUUUUA,0.242
GACUGGUGCUGUACUCACAAAAAUCAUUUGGCCAUGUUAGAAGACACGUUUUGGGAAGAAGAAAUCUGGGAAUAUAAAUCUAAAAGAAAGCCCAAACCCGUACAUCCAAAUAAUUGUUCU,0.223
GACCGCAUUGUGCCAGUGGACAUCUAUGUGCCAGGCUGCCCGCCCACGGCCGAAGCACUCCUUUAUGGCAUCUUGCAGCUGCAACGGAAGAUCAAGCGUGAACAGAAGCUGAAGAUCUGG,0.098
UUAGAUCUCUGAGGCUCAGAAAAAGGAAAGGGUGUCUCAUCCCGCUUUCUCGCUUUUCGCUUUAGCCAUGGCGGAGACAGGGGCCGGGAUAAGUGAGACCGUCACUGAGACAACGGUUAC,0.165
UGGGUGGCAAAAUCCCUUGUUAAAGGAGGUCUGUGCCGGAGGGUUCUUGUUCAGGUCUCUUAUGCUAUUGGAGUUUCUCAUCCAUUAUCUAUCUCCAUUUUCCAUUAUGGUACCUCUCAG,0.237

# Block 6
# Target: Prothrombin, mature alpha-thrombin (F2, Homo sapiens, UniProt P00734)
# Method: aptamer microarray, sandwich
# Form: DNA with 2'F-ANA
# Matrix: in vitro
# Concentration: 200 nM
# Notes: whole 15-mer aptamer, many near background
# Added: Cy3 exosite-II aptamer, 400 nM
# Reading: higher = stronger binding
# Strand: GGTTGGTGTGGTTGG
Modification,mean fluorescence intensity [a.u.]
2'F-ANA at 1 2 3 4 5 8 13 14,80.8
2'F-ANA at 1 3 4 10 11 13 14 15,52
2'F-ANA at 1 5 6 8 11 12 13 14 15,55
2'F-ANA at 1 3 4 5 6 8 9 13 15,52.1
2'F-ANA at 1 2 3 4 5 6 7 9 10 11 12 14,53.5
2'F-ANA at 3 5 7 11 12,197
2'F-ANA at 2 6 7 9 10 12 13 15,155
2'F-ANA at 1 3 4 5 8 10 12 13,44.3
2'F-ANA at 3 4 6 10 11 14 15,163
2'F-ANA at 8 9 12,940
2'F-ANA at 1 5 6 8 9 13,48.2
2'F-ANA at 4 6 10 12 14,59
2'F-ANA at 1 2 5 6 7 8 10 12 14 15,114
2'F-ANA at 1 4 7 9 10 12 15,59.3
2'F-ANA at 1 2 5 6 10 12 13 15,50.7

# Block 7
# Target: Sal-like protein 4, full length isoform A (SALL4, Homo sapiens, UniProt Q9UJQ4, residues 1-1053)
# UniProt Q9UJQ4, sequence (whole entry, looked up): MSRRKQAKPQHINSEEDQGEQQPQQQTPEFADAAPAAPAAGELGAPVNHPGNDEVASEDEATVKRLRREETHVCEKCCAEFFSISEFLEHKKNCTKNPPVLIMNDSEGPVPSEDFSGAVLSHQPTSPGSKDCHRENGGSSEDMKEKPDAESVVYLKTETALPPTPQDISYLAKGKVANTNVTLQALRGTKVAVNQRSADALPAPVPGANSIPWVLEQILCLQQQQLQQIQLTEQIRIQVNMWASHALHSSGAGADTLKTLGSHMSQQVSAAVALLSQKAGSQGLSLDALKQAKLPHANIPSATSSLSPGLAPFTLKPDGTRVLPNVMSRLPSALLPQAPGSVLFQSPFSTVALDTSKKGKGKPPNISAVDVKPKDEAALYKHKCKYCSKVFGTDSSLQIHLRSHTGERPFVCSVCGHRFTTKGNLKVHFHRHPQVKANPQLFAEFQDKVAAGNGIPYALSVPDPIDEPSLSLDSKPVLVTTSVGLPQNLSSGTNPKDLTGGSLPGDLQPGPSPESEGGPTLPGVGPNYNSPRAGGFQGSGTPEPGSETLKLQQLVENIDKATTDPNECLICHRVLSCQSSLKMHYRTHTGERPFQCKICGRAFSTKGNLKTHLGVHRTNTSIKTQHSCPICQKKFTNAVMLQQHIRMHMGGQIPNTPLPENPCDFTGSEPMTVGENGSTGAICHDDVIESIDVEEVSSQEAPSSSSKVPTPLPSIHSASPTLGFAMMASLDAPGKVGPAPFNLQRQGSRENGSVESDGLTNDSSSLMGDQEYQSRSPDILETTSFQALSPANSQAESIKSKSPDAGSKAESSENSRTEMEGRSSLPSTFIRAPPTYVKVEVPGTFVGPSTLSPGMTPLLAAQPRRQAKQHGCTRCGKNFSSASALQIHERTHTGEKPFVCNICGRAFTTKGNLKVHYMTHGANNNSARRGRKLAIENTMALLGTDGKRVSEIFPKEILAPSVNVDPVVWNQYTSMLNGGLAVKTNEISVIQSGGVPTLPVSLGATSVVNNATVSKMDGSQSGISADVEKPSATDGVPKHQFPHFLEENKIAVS
# Method: universal PBM
# Form: double-stranded DNA, one strand shown
# Matrix: in vitro
# Concentration: 600 nM
# Notes: 8-mer, flanks averaged, mean of replicates
# Reading: higher = stronger binding
Strand,E-score
CCTTATAG,0.246
TATCCAAA,0.228
GCTAAAAA,0.131
AACCCTCT,-0.14
CGGACAAC,-0.107
GCTTCGCA,-0.0969
CCCAACAG,-0.186
GCGTCCCA,-0.348
ACCCCGAC,-0.213
GACGGCGC,-0.298
AGCAGCCG,-0.317
CTGATAAA,0.282
CCTCTCAA,-0.0676
GTCTTGAA,0.0836
ACTCCGTG,-0.2
ATACGGAC,0.0178
ACGCATAA,0.203
GCGGAGGA,-0.23
ACATGCGT,0.00222
ACGAGTAC,0.0353
AACAAGTA,0.24
ATCTGGGG,-0.292
AGTTCGTC,0.012
ATCGCCCA,-0.232
AACAAATC,0.278

# For quick reference, copied from above (block 5):
Strand,bound/input enrichment [ratio]
UGGGUGGCAAAAUCCCUUGUUAAAGGAGGUCUGUGCCGGAGGGUUCUUGUUCAGGUCUCUUAUGCUAUUGGAGUUUCUCAUCCAUUAUCUAUCUCCAUUUUCCAUUAUGGUACCUCUCAG,0.237
CGGGAGUUCAUGAUCAAAACCCGUCGUAGGAAGGGCCUGAGUGAAGAUGUGAGCAUCAGCAAGUUCUUCGACGAUCCUAUGUUGCUGGAGCUCGCCAAACAGGAUGUUGUGCUCAAUUAU,0.247
AGUCAUGAACCGGAGUUUGACUAUUUGAAAAGUCUAGAAAUUGAGGAAAAAAUUAAUAAAAUUAGGUGGUUACCACAACAGAAUGCUGCUCAUUUUCUACUGUCUACAAAUGAUAAAACU,79.8
UUAGAUCUCUGAGGCUCAGAAAAAGGAAAGGGUGUCUCAUCCCGCUUUCUCGCUUUUCGCUUUAGCCAUGGCGGAGACAGGGGCCGGGAUAAGUGAGACCGUCACUGAGACAACGGUUAC,0.165
GAUGACUGGCUGGAAAACAGGAAAAGAACACAGAAAAGACAGGCACCUGAAUGGACAGAAGAGGACCUCAGUCAACUGACAAGAAGUAUGGUUAAGUUCCCAGGAGGGACUCCAGGUCGA,0.229
AAGAUUGGGCUUAUUCAGUUUUGCUUAUCUGCUCCUAAAACAGAUAUGGAUAAUCAAAUAGUAGUAUCUGACUAUGCCCAGAUGGAUCGAGUGCUUCGAGAGGAGAGAGCCUAUAUUUUA,0.242
GACUGGUGCUGUACUCACAAAAAUCAUUUGGCCAUGUUAGAAGACACGUUUUGGGAAGAAGAAAUCUGGGAAUAUAAAUCUAAAAGAAAGCCCAAACCCGUACAUCCAAAUAAUUGUUCU,0.223
GUGGCUGCUUUCUUUGGUACUCUCUCUCCACUCCCAACGUAGCUGUGACGUGUUGUAGUUUUUAGCUGUUUGUAAAAUGUUAAAAAAAAAAAAAGUUAAAAGGAAGUUAAACUAACCACA,2.16
AGUAAAGAGGGGAAACCUAAGACCAUAAUUGUGAAUUGGCAGCCUCCCUCCGAAGCCAAUGGCAAAAUUACAGGUUACAUCAUAUAUUACAGUACAGAUGUGAAUGCAGAGAUACAUGAC,0.15
GACCGCAUUGUGCCAGUGGACAUCUAUGUGCCAGGCUGCCCGCCCACGGCCGAAGCACUCCUUUAUGGCAUCUUGCAGCUGCAACGGAAGAUCAAGCGUGAACAGAAGCUGAAGAUCUGG,0.098
CGAACGGGCUCUCUGCGGAUCUCACACUUGCCCAGUGUCUCUUGGCUAGACCUCCAGUGACUGAUGAGGUCAUUCACUGCUGAGCAGGGACGCACUGCAAGUAAAACAACCCUCGUGGAA,0.0435
